Experimental data from different studies.
Each numbered part is a random draw from the data of one study; scales do not carry over between parts. Positions count from the first letter of the parent shown.

Block 1 — method: protein-binding microarray; molecule type: double-stranded DNA, one strand shown; matrix: in vitro; concentration: not given; direction: higher = stronger binding; endpoint: E-score
Target: Protein max, full length (MAX, Homo sapiens, UniProt P61244-2, residues 1-151)
Setting: k-mer, scored over probes, only values ≥0.25
ACGCGTGG: 0.46
AGCGTGAA: 0.305
ATGCCCAC: 0.317
CCCCCACG: 0.377
CATGTCAG: 0.299
CCCGCCCC: 0.313
ACAACATG: 0.355
CCACGCGG: 0.482

Block 2 — method: DHFR PCA, dose-response; matrix: yeast; added: (+)-ABA, dose series; direction: lower = more sensitive; endpoint: ABA EC50
Target: ABI1, truncated, D143A, DHFR fusion (Arabidopsis thaliana, UniProt P49597)
Setting: Hill fit, not affinity, not high confidence
Parent: PYL1, truncated, DHFR fusion (Arabidopsis thaliana, UniProt Q8VZS8); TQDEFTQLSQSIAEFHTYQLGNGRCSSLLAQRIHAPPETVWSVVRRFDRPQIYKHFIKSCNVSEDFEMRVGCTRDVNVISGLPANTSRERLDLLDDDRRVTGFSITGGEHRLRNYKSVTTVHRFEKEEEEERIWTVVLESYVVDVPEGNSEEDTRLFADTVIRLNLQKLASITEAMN
V100P: 2.39 µM
L82Y: 18 µM
Y141V: 67.7 µM
W41M: 5.79 µM
V137H: 2.99 µM
V118P: 32.8 µM
R123G: 6.52 µM
I105H: 164 µM

Single results of other studies
P1: viral docking peptide; KGVKRKLFAEDSS; partner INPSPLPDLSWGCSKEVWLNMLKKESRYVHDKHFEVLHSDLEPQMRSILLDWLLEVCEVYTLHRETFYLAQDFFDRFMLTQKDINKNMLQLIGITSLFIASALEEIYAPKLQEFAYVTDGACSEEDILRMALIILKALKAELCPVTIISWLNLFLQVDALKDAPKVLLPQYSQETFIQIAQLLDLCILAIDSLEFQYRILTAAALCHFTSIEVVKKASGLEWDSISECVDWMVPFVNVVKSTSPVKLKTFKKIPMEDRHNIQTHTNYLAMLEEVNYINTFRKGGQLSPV
KRT2 (Homo sapiens, UniProt P35908)  interaction screen (KRT77 (Homo sapiens, UniProt Q7Z794); cross-linking MS; hits only): cross-linked
P1 E10A  normalised enrichment score (CCNE2, cyclin fold, Cln2 fusion (human); yeast growth competition, sequencing; yeast; strong parent motif; reference: not given, higher = stronger binding): 5.66
